Experimental data of several laboratories.
Every numbered part comes from another study and shows a few of its results, in no order.
Sequence of UniProt O15294 (whole entry, looked up): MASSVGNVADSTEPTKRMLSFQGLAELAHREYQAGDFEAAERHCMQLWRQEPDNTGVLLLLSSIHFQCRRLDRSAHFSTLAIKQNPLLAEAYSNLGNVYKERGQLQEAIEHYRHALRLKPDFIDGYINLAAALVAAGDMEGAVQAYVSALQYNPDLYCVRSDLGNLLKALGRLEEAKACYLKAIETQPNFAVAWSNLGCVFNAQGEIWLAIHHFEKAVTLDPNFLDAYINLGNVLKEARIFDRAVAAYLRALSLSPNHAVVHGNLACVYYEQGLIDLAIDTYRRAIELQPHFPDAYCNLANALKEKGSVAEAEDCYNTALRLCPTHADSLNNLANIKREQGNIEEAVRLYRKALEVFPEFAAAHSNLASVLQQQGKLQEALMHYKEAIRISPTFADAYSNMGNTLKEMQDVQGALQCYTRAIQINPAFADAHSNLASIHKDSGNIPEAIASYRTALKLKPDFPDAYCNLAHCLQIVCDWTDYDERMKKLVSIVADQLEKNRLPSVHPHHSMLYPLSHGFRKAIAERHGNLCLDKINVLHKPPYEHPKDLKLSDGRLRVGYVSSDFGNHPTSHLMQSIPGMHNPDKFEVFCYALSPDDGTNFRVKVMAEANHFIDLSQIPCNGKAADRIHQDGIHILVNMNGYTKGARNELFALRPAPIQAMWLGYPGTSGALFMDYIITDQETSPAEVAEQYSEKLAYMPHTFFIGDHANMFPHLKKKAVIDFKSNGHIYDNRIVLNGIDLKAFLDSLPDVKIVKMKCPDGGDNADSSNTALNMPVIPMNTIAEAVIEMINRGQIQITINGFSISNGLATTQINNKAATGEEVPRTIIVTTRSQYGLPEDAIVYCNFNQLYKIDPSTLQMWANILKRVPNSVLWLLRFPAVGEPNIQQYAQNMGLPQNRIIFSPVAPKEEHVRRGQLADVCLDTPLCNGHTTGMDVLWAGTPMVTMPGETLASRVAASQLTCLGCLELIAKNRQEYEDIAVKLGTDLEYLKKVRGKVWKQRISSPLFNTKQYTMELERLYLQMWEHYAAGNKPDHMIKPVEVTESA

Set 1
Target: Transcriptional repressor CTCF (CTCF, Homo sapiens, UniProt P49711, residues 1-727, full length assumed)
Method: protein-binding microarray
Molecule type: double-stranded DNA, one strand shown
Matrix: in vitro
Tested at: not given
Setting: k-mer, scored over probes, only values ≥0.25
Direction: higher = stronger binding
Residues (chain): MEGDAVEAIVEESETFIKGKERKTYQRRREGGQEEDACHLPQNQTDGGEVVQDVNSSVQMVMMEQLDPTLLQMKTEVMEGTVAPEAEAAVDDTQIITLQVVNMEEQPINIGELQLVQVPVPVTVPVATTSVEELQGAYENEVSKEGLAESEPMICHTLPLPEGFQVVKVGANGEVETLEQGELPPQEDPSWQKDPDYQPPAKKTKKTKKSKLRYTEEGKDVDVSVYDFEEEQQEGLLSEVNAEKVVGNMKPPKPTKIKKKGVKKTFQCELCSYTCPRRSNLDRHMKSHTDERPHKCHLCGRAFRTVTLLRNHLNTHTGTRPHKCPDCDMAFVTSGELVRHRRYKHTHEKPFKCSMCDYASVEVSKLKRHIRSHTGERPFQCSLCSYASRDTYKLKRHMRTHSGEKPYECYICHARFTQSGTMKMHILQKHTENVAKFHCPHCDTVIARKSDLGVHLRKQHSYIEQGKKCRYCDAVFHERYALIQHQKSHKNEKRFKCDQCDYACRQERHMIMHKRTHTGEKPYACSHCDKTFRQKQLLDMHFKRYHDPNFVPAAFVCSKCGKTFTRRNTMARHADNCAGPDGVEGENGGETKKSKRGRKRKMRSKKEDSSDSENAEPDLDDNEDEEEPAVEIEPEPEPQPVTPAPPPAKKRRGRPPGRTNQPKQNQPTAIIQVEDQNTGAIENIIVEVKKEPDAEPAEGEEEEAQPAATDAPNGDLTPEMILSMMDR
`ATTTCCTG` has an E-score of 0.262.
`GCGCGCTA` has an E-score of 0.338.
For `ATATAATA`, the E-score was 0.366.
`ATTATAAG` has an E-score of 0.322.
With `ATATCAAG` the E-score was 0.272.
The E-score of `ATAAATAC` is reported as 0.288.
`AAACATAA` has an E-score of 0.329.
For `GCATTTTA`, the E-score was 0.357.

Set 2
Target: Probable WRKY transcription factor 50, DNA-binding domain (WRKY50, Arabidopsis thaliana, UniProt Q8VWQ5, residues 99-173)
Method: DNA-protein interaction ELISA
Molecule type: double-stranded DNA, one strand shown
Matrix: in vitro, bacterial lysate
Tested at: not given
Setting: whole dsDNA probe, crude lysate protein
Baseline: highest signal in screen
Direction: higher = stronger binding
Target sequence (chain): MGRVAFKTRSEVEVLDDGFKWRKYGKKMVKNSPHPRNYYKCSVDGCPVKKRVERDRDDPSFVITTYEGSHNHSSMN
`AAAAAAATGATTGCCAATGCTCGCAAAAAA` has a relative absorbance of 25.1 % of maximum.
The relative absorbance of `AAAAAACACTTAACTGAGTGGGATTGAAAA` is reported as 19.7 % of maximum.
`AAAAAACGTGCGCGTGCATGTCATCGAAAA` has a relative absorbance of 12 % of maximum.
`AAAAAAAGTTGTACTTATTATACTTTAAAA` gave a relative absorbance of 20.6 % of maximum.
For `AAAAAACGCCTTATGCCTCCCGCTCGAAAA`, the relative absorbance was 11.8 % of maximum.
`AAAAAATTCTAGCTTTTAACTTTAGCAAAA` gave a relative absorbance of 14.1 % of maximum.
`AAAAAACCACCCAGTCTGTTTCTACTAAAA` gave a relative absorbance of 17 % of maximum.
With `AAAAAACTCTTAAGGAAAGTTCCGACAAAA` the relative absorbance was 48.1 % of maximum.

Set 3
Target: Centromere-binding protein 1, full length, N-terminal tag (CBF1, Saccharomyces cerevisiae, UniProt P17106, residues 1-351)
Sequence of UniProt P17106 (whole entry, looked up): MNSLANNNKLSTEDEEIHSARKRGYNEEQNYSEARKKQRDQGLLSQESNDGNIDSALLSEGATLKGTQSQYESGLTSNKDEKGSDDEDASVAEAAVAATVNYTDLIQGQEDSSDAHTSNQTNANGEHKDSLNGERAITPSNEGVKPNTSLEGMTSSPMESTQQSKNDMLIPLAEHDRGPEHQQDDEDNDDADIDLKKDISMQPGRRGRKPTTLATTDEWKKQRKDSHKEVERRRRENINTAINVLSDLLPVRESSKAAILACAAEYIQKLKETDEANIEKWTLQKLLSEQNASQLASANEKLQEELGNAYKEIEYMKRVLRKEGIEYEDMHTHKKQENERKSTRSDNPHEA
Method: protein-binding microarray
Molecule type: double-stranded DNA, one strand shown
Matrix: in vitro
Tested at: 0.8 µM
Setting: whole 60-bp probe, no competitor
Direction: higher = stronger binding
Shared flanks, not repeated: … GTCTTGATTCGCTTGACGCTGCTG
For `CTAATTCACGCTGTCCTCGTGAAAAAACTTTTTTTC`, the fluorescence intensity was 698 a.u.
`GAAATTTGAGCTATTTACGTGACTTCATCTTAGTAG` has a fluorescence intensity of 599 a.u.
`TGTACGAAGCTATAGAATCTGATTATAGTAGTTAGG` has a fluorescence intensity of 507 a.u.
`GAAACCAAAAAAGGGAACGTGACACGGCCTCGCTAG` gave a fluorescence intensity of 2330 a.u.
For `CTAACTAATCAAAATCACGGTAGAAATAGGAGATTC`, the fluorescence intensity was 553 a.u.
`CTAACGCGTTCGCTTCACGTGATGTTCCTTTTCTTC` gave a fluorescence intensity of 10800 a.u.
With `GAAACGCATAATTCTAACGTGACAAATGTTGTTTAG` the fluorescence intensity was 803 a.u.
`GAAGGTTCTCTGGAACAGCTGATGTCCCAGGTGTAG` gave a fluorescence intensity of 711 a.u.

Other studies, line by line
For `WERHYHHWSTYTPSA`, “minimum log2 enrichment ratio” read 2.38 (UDP-N-acetylglucosamine--peptide N-acetylglucosaminyltransferase 110 kDa subunit (OGT, Homo sapiens, UniProt O15294); binding, phage display NGS; peptide; panning round 2; baseline: input library).

A few entries again (set 2):
`AAAAAAATGATTGCCAATGCTCGCAAAAAA` has a relative absorbance of 25.1 % of maximum.
The relative absorbance of `AAAAAACACTTAACTGAGTGGGATTGAAAA` is reported as 19.7 % of maximum.
`AAAAAACGTGCGCGTGCATGTCATCGAAAA` has a relative absorbance of 12 % of maximum.
`AAAAAAAGTTGTACTTATTATACTTTAAAA` gave a relative absorbance of 20.6 % of maximum.
